# Assay results gathered from unrelated publications.
# Every numbered part comes from another study and shows a few of its results, in no order. Positions count from the first letter of the parent shown.
# Sequence of UniProt O75417 (whole entry, unmodified, looked up): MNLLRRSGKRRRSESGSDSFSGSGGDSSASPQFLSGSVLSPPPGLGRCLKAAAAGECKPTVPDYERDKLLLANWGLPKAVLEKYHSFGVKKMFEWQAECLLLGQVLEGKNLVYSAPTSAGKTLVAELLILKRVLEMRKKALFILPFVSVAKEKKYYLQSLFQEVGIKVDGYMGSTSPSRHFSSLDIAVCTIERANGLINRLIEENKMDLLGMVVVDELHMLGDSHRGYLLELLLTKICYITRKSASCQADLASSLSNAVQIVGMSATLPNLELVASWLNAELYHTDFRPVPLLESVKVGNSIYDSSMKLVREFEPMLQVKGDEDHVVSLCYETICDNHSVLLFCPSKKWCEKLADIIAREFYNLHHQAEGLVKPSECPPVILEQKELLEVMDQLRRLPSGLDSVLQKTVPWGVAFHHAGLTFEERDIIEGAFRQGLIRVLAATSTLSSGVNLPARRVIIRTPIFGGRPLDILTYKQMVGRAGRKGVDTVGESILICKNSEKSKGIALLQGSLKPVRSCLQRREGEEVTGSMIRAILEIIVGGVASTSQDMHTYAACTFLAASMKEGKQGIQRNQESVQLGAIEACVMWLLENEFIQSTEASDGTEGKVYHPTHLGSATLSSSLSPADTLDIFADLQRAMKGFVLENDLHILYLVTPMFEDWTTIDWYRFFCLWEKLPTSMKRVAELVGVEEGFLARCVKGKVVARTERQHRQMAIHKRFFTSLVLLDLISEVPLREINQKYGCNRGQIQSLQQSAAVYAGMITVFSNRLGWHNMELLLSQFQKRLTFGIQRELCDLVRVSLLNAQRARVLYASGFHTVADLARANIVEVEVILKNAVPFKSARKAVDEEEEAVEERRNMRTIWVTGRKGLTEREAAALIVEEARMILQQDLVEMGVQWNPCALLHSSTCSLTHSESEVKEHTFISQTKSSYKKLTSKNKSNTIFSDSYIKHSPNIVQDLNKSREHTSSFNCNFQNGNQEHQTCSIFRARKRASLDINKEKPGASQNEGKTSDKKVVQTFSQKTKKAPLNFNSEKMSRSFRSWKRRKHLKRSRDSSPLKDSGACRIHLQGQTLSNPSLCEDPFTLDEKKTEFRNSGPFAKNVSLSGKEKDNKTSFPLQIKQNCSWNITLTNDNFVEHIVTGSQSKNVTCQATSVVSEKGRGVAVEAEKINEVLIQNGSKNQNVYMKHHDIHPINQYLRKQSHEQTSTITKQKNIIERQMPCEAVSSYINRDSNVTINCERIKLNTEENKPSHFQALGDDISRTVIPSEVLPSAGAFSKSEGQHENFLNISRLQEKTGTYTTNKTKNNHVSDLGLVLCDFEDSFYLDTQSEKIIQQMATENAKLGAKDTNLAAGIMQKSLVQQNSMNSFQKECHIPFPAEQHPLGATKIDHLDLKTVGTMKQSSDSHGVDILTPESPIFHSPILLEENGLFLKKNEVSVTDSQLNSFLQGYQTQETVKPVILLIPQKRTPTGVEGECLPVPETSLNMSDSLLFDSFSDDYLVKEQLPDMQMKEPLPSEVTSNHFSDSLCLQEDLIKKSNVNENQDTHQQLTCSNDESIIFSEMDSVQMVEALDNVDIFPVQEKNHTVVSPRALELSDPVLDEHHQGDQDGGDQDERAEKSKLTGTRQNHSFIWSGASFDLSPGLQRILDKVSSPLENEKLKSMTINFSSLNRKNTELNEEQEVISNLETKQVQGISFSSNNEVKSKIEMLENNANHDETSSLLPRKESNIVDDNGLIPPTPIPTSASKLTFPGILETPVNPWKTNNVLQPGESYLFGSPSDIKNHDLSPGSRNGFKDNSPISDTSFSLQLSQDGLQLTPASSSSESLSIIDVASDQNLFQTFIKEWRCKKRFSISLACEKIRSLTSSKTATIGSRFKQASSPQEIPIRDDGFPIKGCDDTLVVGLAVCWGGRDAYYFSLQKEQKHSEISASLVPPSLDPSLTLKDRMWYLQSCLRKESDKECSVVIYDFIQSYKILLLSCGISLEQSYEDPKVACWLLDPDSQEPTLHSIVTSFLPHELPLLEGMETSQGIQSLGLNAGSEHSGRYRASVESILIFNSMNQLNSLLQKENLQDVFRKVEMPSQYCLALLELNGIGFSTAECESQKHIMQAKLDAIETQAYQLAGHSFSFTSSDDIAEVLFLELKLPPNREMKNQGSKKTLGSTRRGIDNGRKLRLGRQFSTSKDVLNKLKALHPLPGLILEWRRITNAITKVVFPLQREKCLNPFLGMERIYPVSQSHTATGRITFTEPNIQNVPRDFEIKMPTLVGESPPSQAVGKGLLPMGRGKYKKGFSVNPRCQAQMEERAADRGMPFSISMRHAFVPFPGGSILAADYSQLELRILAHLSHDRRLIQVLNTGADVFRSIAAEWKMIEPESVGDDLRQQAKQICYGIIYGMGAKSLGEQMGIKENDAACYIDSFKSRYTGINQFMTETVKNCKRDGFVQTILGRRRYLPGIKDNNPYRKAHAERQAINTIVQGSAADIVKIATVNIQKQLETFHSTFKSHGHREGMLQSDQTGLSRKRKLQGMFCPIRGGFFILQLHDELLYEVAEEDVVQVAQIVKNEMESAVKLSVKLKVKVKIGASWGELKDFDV
# Sequence of UniProt P61075 (whole entry, looked up): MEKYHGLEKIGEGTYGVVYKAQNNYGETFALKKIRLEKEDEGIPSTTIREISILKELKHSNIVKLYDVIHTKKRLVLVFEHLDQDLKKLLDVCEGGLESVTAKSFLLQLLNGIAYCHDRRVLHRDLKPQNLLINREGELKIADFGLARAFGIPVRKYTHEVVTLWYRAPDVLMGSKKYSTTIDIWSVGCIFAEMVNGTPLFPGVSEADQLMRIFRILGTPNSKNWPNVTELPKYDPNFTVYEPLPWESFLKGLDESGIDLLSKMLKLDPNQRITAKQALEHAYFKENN
# Sequence of UniProt P62344 (whole entry, looked up): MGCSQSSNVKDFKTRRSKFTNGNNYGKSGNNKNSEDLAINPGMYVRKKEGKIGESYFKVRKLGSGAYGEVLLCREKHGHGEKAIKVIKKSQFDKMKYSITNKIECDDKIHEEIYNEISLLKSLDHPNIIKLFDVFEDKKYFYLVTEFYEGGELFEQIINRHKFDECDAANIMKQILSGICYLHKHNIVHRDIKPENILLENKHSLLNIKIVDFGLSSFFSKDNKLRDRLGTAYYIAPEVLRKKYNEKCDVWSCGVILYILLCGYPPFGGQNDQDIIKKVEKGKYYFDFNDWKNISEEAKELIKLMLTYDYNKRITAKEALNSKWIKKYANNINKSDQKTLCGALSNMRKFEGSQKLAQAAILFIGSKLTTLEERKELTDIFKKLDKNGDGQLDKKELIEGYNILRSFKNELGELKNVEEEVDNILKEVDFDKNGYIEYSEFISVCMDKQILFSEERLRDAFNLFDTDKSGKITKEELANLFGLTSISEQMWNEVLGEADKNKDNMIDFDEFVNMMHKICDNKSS
# Sequence of UniProt P34969 (whole entry, looked up): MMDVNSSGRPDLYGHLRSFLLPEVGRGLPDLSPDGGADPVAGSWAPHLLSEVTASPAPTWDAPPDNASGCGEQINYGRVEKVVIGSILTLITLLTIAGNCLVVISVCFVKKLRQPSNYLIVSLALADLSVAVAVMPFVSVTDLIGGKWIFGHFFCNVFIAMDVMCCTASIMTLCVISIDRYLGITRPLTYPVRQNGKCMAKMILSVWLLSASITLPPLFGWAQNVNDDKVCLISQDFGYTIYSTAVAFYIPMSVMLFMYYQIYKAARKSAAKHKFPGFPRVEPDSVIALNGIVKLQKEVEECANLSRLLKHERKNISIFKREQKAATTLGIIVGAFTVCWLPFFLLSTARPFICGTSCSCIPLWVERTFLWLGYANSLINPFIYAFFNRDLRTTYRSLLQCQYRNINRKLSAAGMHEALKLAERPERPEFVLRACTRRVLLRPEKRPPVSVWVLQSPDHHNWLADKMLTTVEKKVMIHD
# Sequence of UniProt P9WI81 (whole entry, looked up): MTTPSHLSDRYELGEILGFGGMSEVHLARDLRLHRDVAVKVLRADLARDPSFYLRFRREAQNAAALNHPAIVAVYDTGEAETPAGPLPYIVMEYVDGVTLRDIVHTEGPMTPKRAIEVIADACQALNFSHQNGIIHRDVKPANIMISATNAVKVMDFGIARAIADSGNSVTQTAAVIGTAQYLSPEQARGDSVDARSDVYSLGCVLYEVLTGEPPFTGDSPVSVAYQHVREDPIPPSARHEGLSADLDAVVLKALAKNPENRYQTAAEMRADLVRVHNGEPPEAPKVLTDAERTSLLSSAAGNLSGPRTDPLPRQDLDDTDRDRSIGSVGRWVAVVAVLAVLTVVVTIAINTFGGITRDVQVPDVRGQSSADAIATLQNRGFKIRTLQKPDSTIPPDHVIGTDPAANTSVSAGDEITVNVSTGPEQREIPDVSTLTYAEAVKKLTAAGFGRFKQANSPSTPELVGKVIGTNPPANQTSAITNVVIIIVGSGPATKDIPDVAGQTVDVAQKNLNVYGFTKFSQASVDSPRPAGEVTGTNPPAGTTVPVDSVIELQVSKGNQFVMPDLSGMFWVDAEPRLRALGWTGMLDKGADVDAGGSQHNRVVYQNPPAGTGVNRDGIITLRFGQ

# Study 1
# Target: CCNE1, cyclin fold, Cln2 fusion (human)
# Technique: yeast growth competition, sequencing
# Medium: yeast
# Setting: strong parent motif
# Reference: not given
# Reading: higher = stronger binding
# Parent: viral docking peptide; CKVKRKLFGSENI
Change,normalised enrichment score
E11A,3.57
V3A,5.08
F8L,0.0955
F8A,0.38

# Mixed results
SMILES,target or system,assay,setting,how to read,endpoint,value
CC(=O)N1CCC(c2ccc(C(=O)NC(=N)N)cc2C(F)(F)F)CC1,"pknB (Mycobacterium tuberculosis, UniProt P9WI81)","cell-free assay, competition with immobilised ligand",1 µM,,remaining binding,100%
CNC(C)(C)Cc1ccccc1,"DNA polymerase theta, ATPase domain (POLQ, Homo sapiens, UniProt O75417)","enzyme activity, inhibitor",77 µM,reference: untreated,remaining activity,96.3%
O=C(NS(=O)(=O)c1ccc(NCC2CCOCC2)c([N+](=O)[O-])c1)c1ccc(N2CCN(Cc3ccc(C(F)(F)F)cc3-c3ccc(Cl)cc3)CC2)cc1Oc1cnc2[nH]ccc2c1,"CDPK1 (Plasmodium falciparum, UniProt P62344)","cell-free assay, competition with immobilised ligand",1 µM,,remaining binding,82%
c1cncc([C@@H]2CCCN2)c1,Sarcocystis neurona,parasite growth,"10 µM, 96 h",,inhibition,-6.9%
O=S(=O)(NC1CCC(c2cc(F)ccc2F)(S(=O)(=O)c2ccc(Cl)cc2)CC1)C(F)(F)F (stereo not shown),"CRK2 (Plasmodium falciparum, UniProt P61075)","cell-free assay, competition with immobilised ligand",1 µM,,remaining binding,100%
N#CC1(c2ccccn2)CCN(Cc2cc(C(=O)O)c(=O)n3ccccc23)CC1,"HTR7 (Homo sapiens, UniProt P34969)","binding, radioligand binding",,,Ki,> 10 µM

# For quick reference, copied from above (study 1):
Change,normalised enrichment score
E11A,3.57
